Published values of several laboratories.
Numbered parts are unrelated; each lists some results of a single study.

Set 1 — effect on: enzyme activity; action: inhibitor; concentration: 20 µM; notes: hit confirmation
Target: Replicase polyprotein 1ab, main protease (rep, Severe acute respiratory syndrome coronavirus 2, UniProt P0DTD1)
| Compound | inhibition [%] |
| --- | --- |
| COc1cc(CC2NCCc3cc(O)c(O)cc32)cc(OC)c1OC (centres unmarked) | 55.4 |
| S=c1[nH]nc(-c2ccccc2)o1 | 13 |
| Nc1nnc(Sc2ncc([N+](=O)[O-])s2)s1 | 100 |

Set 2 — action: inhibitor; concentration: 20 µM
Target: Replicase polyprotein 1ab, nsp13 helicase (rep, Severe acute respiratory syndrome coronavirus 2, UniProt P0DTD1)
| Structure (SMILES) | inhibition [%] |
| --- | --- |
| Nc1c2c(nc3ccccc13)CCCC2 | 6.01 |
| Cc1cc(C(=O)NNCc2ccccc2)no1 | 4.56 |
| CC(C)(N)c1ncc(-c2ccc(OC(F)(F)F)cc2)[nH]1 | 5.18 |
| O=c1oc2c(O)c(O)cc3c(=O)oc4c(O)c(O)cc1c4c23 | 10.9 |
| O=C(OOC(=O)c1ccccc1)c1ccccc1 | -7.71 |
| Cc1[nH]c(/C=C2\C(=O)Nc3cc(-c4ccccc4)ccc32)c(C)c1CCC(=O)O | 2.08 |
| Cc1ncc(Cl)cc1NCc1ccc(C(=O)N[C@@H](CC2CCCC2)C(=O)NC2CC2)s1 | -1.99 |
| CS(=O)(=O)N(Cc1ccco1)CC(O)Cn1c2ccccc2c2ccccc21 (centres unmarked) | 4.28 |
| COc1ccc2c(c1)c(CC(=O)N1CCOCC1)c(C)n2C(=O)c1ccc(Cl)cc1 | 2.45 |
| Cc1ccccc1CN1C(=O)C2=C(CCN(Cc3ccccc3)C2)N2CCN=C12 | 2.71 |
| Cc1c(CN(C)C(=O)/C=C/c2cnc3c(c2)CCC(=O)N3)oc2ccccc12 | -1.43 |
| COCC1=C(C(=O)O)N2C(=O)[C@@H](NC(=O)/C(=N\OC)c3csc(N)n3)[C@H]2SC1 | 7.5 |
| O=c1c2ccccc2nc2n1CCc1c-2[nH]c2ccccc12 | 0.5 |
| COc1c(-c2ccc3cc(NS(C)(=O)=O)ccc3c2)cc(-n2ccc(=O)[nH]c2=O)cc1C(C)(C)C | 1.53 |
| N#Cc1ccccc1OCC(O)CNCCNC(=O)Nc1ccccc1 (centres unmarked) | 6.8 |
| CNC(=O)c1cccc(-c2ccc3c(N4CCOC[C@@H]4C)nc(N4CCOC[C@@H]4C)nc3n2)c1 | 1.69 |
| CCCCCCCCCCCCCCCCCCOC[C@H](COP(=O)([O-])OCC[N+](C)(C)C)OC | 2.26 |
| CCCCC(CC)COc1ccc(-c2nc(-c3ccc(OC)cc3)nc(-c3ccc(OCC(CC)CCCC)cc3O)n2)c(O)c1 (centres unmarked) | 6.08 |

Set 3 — cell line: HEK-293T/ACE2; concentration: 10 µM; time: 16 h; reference: vehicle
| SMILES | viability [%] |
| --- | --- |
| Cc1cn([C@H]2C[C@H](N=[N+]=[N-])[C@@H](CO)O2)c(=O)[nH]c1=O | 98.1 |
| C#C[C@]1(O)CC[C@H]2[C@@H]3CCc4cc(O)ccc4[C@H]3CC[C@@]21C | 92.8 |
| Nc1nc(Cl)nc2c1ncn2[C@H]1C[C@H](O)[C@@H](CO)O1 | 80.7 |
| CS(=O)(=O)OCCCCOS(C)(=O)=O | 99.1 |

Set 4 — method: protein binding microarray; form: double-stranded DNA, one strand shown; medium: in vitro; concentration: not given; reference: not given; reading: higher = stronger binding
Target: Histone acetyltransferase KAT6A, winged helix 2, GST fusion (KAT6A, Homo sapiens, UniProt Q92794, residues 85-181)
Notes: 8-mer, flanks averaged, mean of 2 arrays, mostly near background
Construct (chain): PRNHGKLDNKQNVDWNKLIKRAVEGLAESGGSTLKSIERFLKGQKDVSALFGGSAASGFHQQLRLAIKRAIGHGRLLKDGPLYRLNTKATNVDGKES
| Oligonucleotide | E-score |
| --- | --- |
| AAGGTCCC | -0.102 |
| AAATTATG | 0.0617 |
| AGATGGAG | 0.151 |
| CCGGTGAG | -0.0937 |
| AGTTTTGA | 0.05 |
| CATGTCCA | -0.106 |
| ATAATACA | 0.133 |
| AAGTGCGA | 0.0111 |

Set 5 — method: protein-binding microarray; form: double-stranded DNA, one strand shown; medium: in vitro; concentration: 2540 nM top; notes: 60-bp whole probe; added: salmon DNA 0.4 mg/ml; reference: random background probes; reading: higher = stronger binding; constant ends, left off below: GCCTAGCAC … GTCTTGATTCGCTTGACGCTGCTG
Target: Interferon regulatory factor 3, full length, phosphomimetic (IRF3, Homo sapiens, UniProt Q14653, residues 1-427, S386D/S396D/S398D/S402D/T404D/S405D)
Chain of UniProt Q14653 (whole entry, unmodified, looked up): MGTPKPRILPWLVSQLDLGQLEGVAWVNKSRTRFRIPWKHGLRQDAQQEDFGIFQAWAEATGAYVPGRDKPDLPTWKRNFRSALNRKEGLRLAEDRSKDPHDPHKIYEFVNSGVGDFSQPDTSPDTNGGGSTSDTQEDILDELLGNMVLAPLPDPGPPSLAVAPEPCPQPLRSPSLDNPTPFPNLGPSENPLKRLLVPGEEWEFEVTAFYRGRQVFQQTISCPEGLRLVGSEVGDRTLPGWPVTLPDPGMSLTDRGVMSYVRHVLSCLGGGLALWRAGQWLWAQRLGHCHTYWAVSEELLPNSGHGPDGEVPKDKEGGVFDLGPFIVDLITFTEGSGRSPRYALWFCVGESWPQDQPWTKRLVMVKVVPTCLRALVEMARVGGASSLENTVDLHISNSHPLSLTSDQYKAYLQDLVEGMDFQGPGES
| Oligonucleotide | fitted relative affinity |
| --- | --- |
| TTAGATATCGGGACTGGATTGGTGCTA | -0.0651 z-score |
| TTAGGTTTCCTTTTCTTTTAGTGCTAG | 11.2 z-score |
| CTGCGGTGAGTGCGTTATCGGTGCTAG | -0.265 z-score |
| TTAGATATCAGTTTCGTTTAGTGCTAG | 5.31 z-score |
| TCATTTCTACGTCTGATACTGTGCTAG | 1.93 z-score |
| GACGAACTGACTATCGAGACGTGCTAG | -0.00778 z-score |
| TTAGAACTGAGACTGGCTTAGTGCTAG | -0.557 z-score |
| GACAGTCTCGGACTGGGGACGTGCTAG | -0.141 z-score |

Repeated from above (set 2):
| Structure (SMILES) | inhibition [%] |
| --- | --- |
| Nc1c2c(nc3ccccc13)CCCC2 | 6.01 |
| Cc1cc(C(=O)NNCc2ccccc2)no1 | 4.56 |
| CC(C)(N)c1ncc(-c2ccc(OC(F)(F)F)cc2)[nH]1 | 5.18 |
| O=c1oc2c(O)c(O)cc3c(=O)oc4c(O)c(O)cc1c4c23 | 10.9 |
| O=C(OOC(=O)c1ccccc1)c1ccccc1 | -7.71 |
| Cc1[nH]c(/C=C2\C(=O)Nc3cc(-c4ccccc4)ccc32)c(C)c1CCC(=O)O | 2.08 |
| Cc1ncc(Cl)cc1NCc1ccc(C(=O)N[C@@H](CC2CCCC2)C(=O)NC2CC2)s1 | -1.99 |
